Measured values of several laboratories.
Each numbered part is a random draw from the data of one study; scales do not carry over between parts. Substitutions count along the parent as printed.

Sample 1
Target: Histone acetyltransferase KAT6A, winged helix 1, GST fusion (KAT6A, Homo sapiens, UniProt Q92794, residues 1-85)
Technique: protein binding microarray
Form: double-stranded DNA, one strand shown
Sample: in vitro
Tested at: not given
Notes: 8-mer, flanks averaged, mean of 2 arrays, mostly near background
Baseline: not given
Reading: higher = stronger binding
Measurement: E-score
Residues (chain): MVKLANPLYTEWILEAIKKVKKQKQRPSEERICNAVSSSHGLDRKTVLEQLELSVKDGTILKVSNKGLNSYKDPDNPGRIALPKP
AATATAGA: -0.0788
AATCTCCC: -0.0585
ATGTGTTC: -0.12
CAGAGGTC: 0.0339
AGTAGGCG: -0.0658
TCGGTGAA: 0.114
CATGGATC: -0.00942
CGGAAGTC: 0.304
AGCGCGCA: 0.43
CAGGGATA: -0.255
AATTGGGT: -0.253
CACATTCG: 0.0376
AGCATTCC: 0.0478
GTCGTCCA: -0.0298
CAATTTAC: -0.147
CAAGGACG: 0.107
CCACATGG: -0.0747
ACTCGCTA: -0.0186
AAGCAGTG: -0.14
ACAACCTC: -0.056
AAACCCAA: -0.259
AATGGGGT: -0.0519
AACGAACC: -0.0187

Sample 2
Target: PABPC1L2, full length, GST fusion (mouse, UniProt A0ABA7IW68)
Technique: RNAcompete
Form: RNA
Sample: in vitro
Tested at: 20 nM
Notes: 7-mer, probes averaged, single round
Baseline: mean of 7-mers
Reading: higher = stronger binding
Measurement: 7-mer Z-score
Construct (chain): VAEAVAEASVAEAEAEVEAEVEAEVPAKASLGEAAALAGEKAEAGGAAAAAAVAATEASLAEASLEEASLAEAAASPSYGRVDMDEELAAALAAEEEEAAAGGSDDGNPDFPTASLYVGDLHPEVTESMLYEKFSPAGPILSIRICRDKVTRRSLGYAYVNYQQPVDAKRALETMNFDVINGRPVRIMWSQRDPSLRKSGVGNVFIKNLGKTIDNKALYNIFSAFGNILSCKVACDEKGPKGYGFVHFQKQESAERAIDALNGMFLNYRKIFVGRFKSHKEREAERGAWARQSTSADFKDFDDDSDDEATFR
GCUGUGG: -0.0464
AGGAGGG: 0.358
GUGCAUU: -0.0428
GGUUAAU: -0.117
CGUCUCU: -0.443
UUCUGUG: -0.45
CCCGCCA: -0.431
AAUUUUC: -0.22
CUGUCAU: -0.22
CGCACAU: -0.208
UAUGUUG: -0.159
CGGUAGA: 0.0877
UUCACUU: -0.32
AGGCAAA: 1.21
UUACCAA: 0.0877
GGAGGGU: 0.434

Sample 3
Target: Prothrombin, mature alpha-thrombin (F2, Homo sapiens, UniProt P00734)
Technique: aptamer microarray, sandwich
Form: DNA with 2'F-ANA
Sample: in vitro
Tested at: 200 nM
Notes: whole 15-mer aptamer, many near background
Added: Cy3 exosite-II aptamer, 400 nM
Reading: higher = stronger binding
Measurement: mean fluorescence intensity
Strand: GGTTGGTGTGGTTGG
2'F-ANA at 1 3 4 5 6 7 10 11 12 13: 47.6 a.u.
2'F-ANA at 2 3 5 8 10 11: 63.7 a.u.
2'F-ANA at 2 3 4 5 9 10 11: 61.2 a.u.
2'F-ANA at 7 8 11 14 15: 206 a.u.
2'F-ANA at 8 9 12 14 15: 231 a.u.
2'F-ANA at 1 4 6 8 11 12 13 15: 163 a.u.
2'F-ANA at 1 2 4 5 6 7 8 9 10 12 13 14: 88.3 a.u.
2'F-ANA at 3 5 9 10 11 13: 76.1 a.u.
2'F-ANA at 6 7 9 10 11 14: 98.9 a.u.
2'F-ANA at 1 3 4 5 6 11 12 13 15: 67.4 a.u.
2'F-ANA at 2 3 4 5 6 8 9 11 12 13 15: 105 a.u.
2'F-ANA at 3 4 5 7 8 9 12 13: 142 a.u.
2'F-ANA at 1 2 4 5 8 9 12: 126 a.u.
2'F-ANA at 1 2 4 7 10 12: 57.1 a.u.
2'F-ANA at 2 4 5 7 8 9 10 11 13 15: 51 a.u.
2'F-ANA at 1 4 7 9 10: 51.7 a.u.
2'F-ANA at 4 8 14: 109 a.u.
2'F-ANA at 1 2 3 4 5 6 8 9 10 11 12 13 15: 54.7 a.u.
2'F-ANA at 1 3 6 7 9 12 13 14 15: 96.6 a.u.
2'F-ANA at 2 4 5 6 7 9 11 12 15: 95.6 a.u.
2'F-ANA at 3 5 6 7 8 10 11 13 14: 50.7 a.u.
2'F-ANA at 1 3 5 6 7 9 10 11 12 13 14 15: 76.3 a.u.
2'F-ANA at 4 5 6 7 8 12 14 15: 49.7 a.u.

Sample 4
Target: RING finger protein unkempt homolog, zinc fingers 1-6, GST-SBP tag (UNK, Homo sapiens, UniProt Q9C0B0, residues 30-357)
UniProt Q9C0B0, sequence (30-357, looked up): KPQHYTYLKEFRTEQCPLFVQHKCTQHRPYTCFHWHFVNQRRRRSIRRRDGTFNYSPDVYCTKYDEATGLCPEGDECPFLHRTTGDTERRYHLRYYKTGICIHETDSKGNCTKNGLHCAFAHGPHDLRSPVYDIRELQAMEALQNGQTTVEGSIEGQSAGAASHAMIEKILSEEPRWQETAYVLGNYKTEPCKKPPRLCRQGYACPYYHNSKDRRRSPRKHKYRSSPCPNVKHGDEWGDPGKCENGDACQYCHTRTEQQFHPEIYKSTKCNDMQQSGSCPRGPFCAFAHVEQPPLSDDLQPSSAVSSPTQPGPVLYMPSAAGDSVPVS
Technique: RNA Bind-n-Seq
Form: RNA
Sample: in vitro
Tested at: not given
Notes: RNA with constant flanks, human-mouse chimeric sites, ends assumed
Baseline: input RNA pool
Reading: higher = stronger binding
Measurement: bound/input enrichment
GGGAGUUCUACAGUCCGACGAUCAAAGAACUUGCUGAUGAUGAAGAUGAGGAAGACAAUGAUGAUGUUGAACCCAUUUCUGAAUUUAGAUUUGUGCCCAGUGAUAAGUCAGCAUUGGAGGCGAUGUUCACAGCAAUGUGUGAGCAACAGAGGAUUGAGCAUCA: 1.13 ratio
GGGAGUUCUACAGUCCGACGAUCCUGAGGAUACCACUGAAGAGACCUUAAAAGGAGUCAUUGAGGGCUCUGUUCGUGCAAGAAUAGUCACUGAUCGGGAAACUGGUUCUUCCAAAGGGUUUUGGUUUUGUGACUUUAAUAGUGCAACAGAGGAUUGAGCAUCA: 0.453 ratio
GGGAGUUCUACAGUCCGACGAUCCGGAGCCCCUCCCUCUCACAGGCCCAAGAUAUAACCCACCAGUGCCUUUUGUCUUCCUGUCAGCUCUGUCAAUCACGGCCCUGCCUUCACGCCCACACCAAGUGCCCAAAGUGGGGAGGGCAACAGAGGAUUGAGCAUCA: 0.249 ratio
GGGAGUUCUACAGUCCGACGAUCCCCUCCCCGGGCCACCCACCCCUCCCGGCUCCCCGCCGAGAUCCAGGUUUCUUCUGUUUUCAUAGCCAAUAAGAAAAAUGUUCUACGCACAUUUUGUCCUCAGUAAACGAGGGCCUCUGGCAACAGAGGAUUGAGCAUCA: 1.2 ratio
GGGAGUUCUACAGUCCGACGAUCGGAUCUUUGGGACUGUUUUACUUAAUUGGUCAUUGAUAGCUUAACAAACAUGGAGAUAAGAUUAGAAAUCUUGACAUCAACAAGUAUUAAGCAGAAAAAACCAUGGCCACGUGUCUCCUGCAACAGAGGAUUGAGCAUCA: 0.186 ratio
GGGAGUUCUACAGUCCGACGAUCGCCACCAGAUCCCAGAAACAUGACCCUUGCUGCCUACAAAGAGAAGAUGAAGGAACUCCCGCUGGUGUCCUUGUUCUGCUCUUGCUUCCUGGCCGAUCCCCUGAAUAAGUCGUCCUACAACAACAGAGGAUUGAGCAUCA: 0.246 ratio
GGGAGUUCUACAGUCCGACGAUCCUGAGGAUACCACUGAAGAGACCUUAAAAGAAUCAUUUGAGGGCUCUGUUCGUGCAAGAAUAGUCACCUGACCGGGAACUGGUUCUUCCAAAGGGUUUGGUUUUGUAGACUUUAAUAGUGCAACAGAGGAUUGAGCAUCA: 0.776 ratio
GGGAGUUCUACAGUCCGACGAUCAAAGAGUGGAUAGAAUGUGCACACGGGAUCGGUGGGACCCGGGCGAAAAAGGAGUGCAAGAUAGAGUUCGAUGACUUCGAAGAGUGCUUGCUUCGGUACAAAACGAUGAGACGUGCACAUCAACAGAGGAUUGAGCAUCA: 0.218 ratio
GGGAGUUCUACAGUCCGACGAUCCAACCUCAGAGCCCAGACUUCCUGGAUAUUACCAACCCUAAAGCGGUAUUAGAAAAUGCAUUGAGAAACUUCGCCUGUCUGACGACUGGAGAUGUGAUUGCUAUCAACUAUAAUGAAAAGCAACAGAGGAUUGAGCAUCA: 0.416 ratio
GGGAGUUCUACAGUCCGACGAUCGCUCCUCCCCGCUCUGCAGCCUGGGGACUUUUGGCAAGGACCAGAAUCCAGCUUUCUUUUAAUAGUGUCAGUGUAACUGUAUCCCGUGACAUUUCAUUUUUUUUAAAUAGUGUAUUUUUUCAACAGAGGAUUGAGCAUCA: 20.3 ratio
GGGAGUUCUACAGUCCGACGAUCCCUGCUCAGAUCACCAUGAAAGUAAUCCAAGGCCUAUAUAGUGGGGUCACCACAGUGGAACUGGACACUUUGGCUGCUGAGACAGCCGCAACCUUGACCACGAAGCACCCUGACUAUGCCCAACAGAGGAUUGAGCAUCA: 0.125 ratio

Sample 5
Target: TEF, bZIP domain (human)
Technique: DHFR protein complementation
Sample: yeast
Notes: single substitutions, most at no-binding floor
Baseline: wild-type JUN-FOS pair
Reading: higher = stronger binding
Measurement: binding fitness
Starting sequence: JUN, bZIP domain (human); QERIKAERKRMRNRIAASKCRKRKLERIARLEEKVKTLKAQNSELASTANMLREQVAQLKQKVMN; partner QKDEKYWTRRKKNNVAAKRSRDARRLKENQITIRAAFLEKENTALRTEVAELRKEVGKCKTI
S43L: -1.11 natural log
E32P: -1.52 natural log
N42K: -1.53 natural log
L45Q: -1.5 natural log
T48W: -1.49 natural log
R30N: -1.52 natural log
E54V: -1.11 natural log
K39L: -1.53 natural log
Q41S: -1.49 natural log
A46W: -1.54 natural log
E33P: -1.47 natural log

Sample 6
Target: Ras GTPase-activating protein-binding protein 1, full length (G3BP1, Homo sapiens, UniProt Q13283)
UniProt Q13283, sequence (whole entry, looked up): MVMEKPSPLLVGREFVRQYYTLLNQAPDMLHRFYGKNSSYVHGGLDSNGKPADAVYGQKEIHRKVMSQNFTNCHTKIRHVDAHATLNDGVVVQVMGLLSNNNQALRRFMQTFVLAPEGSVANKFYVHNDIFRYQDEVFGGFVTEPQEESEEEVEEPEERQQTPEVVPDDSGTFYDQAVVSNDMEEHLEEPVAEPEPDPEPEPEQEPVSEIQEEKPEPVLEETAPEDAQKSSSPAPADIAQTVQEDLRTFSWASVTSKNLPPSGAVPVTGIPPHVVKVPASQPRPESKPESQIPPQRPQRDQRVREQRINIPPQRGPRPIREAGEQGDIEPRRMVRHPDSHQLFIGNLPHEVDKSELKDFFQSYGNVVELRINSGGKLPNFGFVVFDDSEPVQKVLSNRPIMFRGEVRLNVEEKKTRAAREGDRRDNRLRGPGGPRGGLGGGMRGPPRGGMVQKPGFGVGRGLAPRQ
Technique: RNA Bind-n-Seq
Form: RNA
Sample: in vitro
Tested at: 200 nM
Notes: whole 134-nt RNA, ends assumed
Added: 150 mM LiCl
Baseline: input library
Reading: higher = stronger binding
Measurement: log2 enrichment
Each molecule: 7-deaza-guanosine replaces G
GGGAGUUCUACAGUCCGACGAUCUCCUGUGCUACACAUCGUAUGUACCGAAUCGGGGUUUUUGGUUUUUGGGGUUUUUGGGGAAAGUAUUAUGUUACGCCGUUCGGAUCUGCAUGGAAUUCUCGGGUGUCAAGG: -0.289
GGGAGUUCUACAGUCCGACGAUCGUCCUGUGCUACACAUCGUAUGUACCGAAUCGGGUUUUUGGGAAAAAAAGGGUUUGGGAAAGUAUUAUGUUACGCCGUUCGGAUCUGCACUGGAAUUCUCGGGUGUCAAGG: -2.78
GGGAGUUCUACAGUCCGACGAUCGCAGGAAGUAAAAACAAAUGGAAAUGCUUCGGAGAGUGGCAGGGGUGGGGGUUGCUAAGGAAAGGGUGGGAUGGGAGUGGGUAAAGAGUUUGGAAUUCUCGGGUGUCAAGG: 0.116
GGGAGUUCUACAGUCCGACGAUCCUCAAGUCCUGUGCUACACAUCGUAUGUACCGAAUCGGUGGAAAAAGGAAAGGAAAGUAUUAUGUUACGCCGUUCGGAUCUGCACUUCCAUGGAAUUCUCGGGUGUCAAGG: 0.0777
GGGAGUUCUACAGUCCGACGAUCGUCCUGUGCUACACAUCGUAUGUACCGAAUCGGGAAAAGGGGAAAAGGGGAAAAGGGGAAAGUAUUAUGUUACGCCGUUCGGAUCUGCACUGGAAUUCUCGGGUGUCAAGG: 0.413
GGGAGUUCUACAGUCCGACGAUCACCAUGCAGGUGGGCAUCUUUGGGAAGUGGGGCAAGGGGGGGAUAGGGAGGGGGGUAACACUAUGGGAACAGGUGGUCCCAGGUCGUUUCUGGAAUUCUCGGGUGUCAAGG: 0.298
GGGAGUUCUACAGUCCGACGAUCAGUCCUGUGCUACACAUCGUAUGUACCGAAUCGGUUUUUGGUUUUUGGGUUUUUGGGGAAAGUAUUAUGUUACGCCGUUCGGAUCUGCACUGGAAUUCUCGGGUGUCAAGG: 0.185

Sample 7
Target: CCND3, cyclin fold, Cln2 fusion (human)
Technique: yeast growth competition, sequencing
Sample: yeast
Notes: weak parent motif
Baseline: not given
Reading: higher = stronger binding
Measurement: normalised enrichment score
Starting sequence: ORC1 docking peptide (human); PRARKRLELGNLG; partner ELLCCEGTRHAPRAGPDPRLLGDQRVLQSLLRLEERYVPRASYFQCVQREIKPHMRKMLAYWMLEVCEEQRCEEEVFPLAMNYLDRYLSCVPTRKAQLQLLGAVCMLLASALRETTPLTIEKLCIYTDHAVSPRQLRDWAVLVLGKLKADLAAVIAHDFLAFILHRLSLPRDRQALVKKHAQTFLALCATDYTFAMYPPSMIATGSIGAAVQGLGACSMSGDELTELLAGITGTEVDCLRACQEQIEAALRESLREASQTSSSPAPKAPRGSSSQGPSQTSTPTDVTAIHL
R4T: 0.159
K5R: 0.319
G13K: 0.204
G10C: 0.135
G13N: 0.162
A3T: 0.162
A3E: 0.198
N11H: 0.136
E8R: 0.0971
G13Y: 0.138
G10R: 0.11
P1I: 0.078
R2T: 0.206
L12V: 0.108
E8H: 0.0493
E8F: 0.146
G10V: 0.0655

For quick reference, copied from above (sample 7):
G10V: 0.0655
G13K: 0.204
L12V: 0.108
E8H: 0.0493
A3E: 0.198
E8F: 0.146
G13N: 0.162
R2T: 0.206
G10C: 0.135
A3T: 0.162
N11H: 0.136
K5R: 0.319
G13Y: 0.138
R4T: 0.159
P1I: 0.078
G10R: 0.11
E8R: 0.0971
